Measured values from different studies.
A part holds a random share of what one study measured.

Block 1 — method: Spec-seq; form: double-stranded DNA, one strand shown; sample: in vitro; concentration: not given; notes: whole probe, mean of replicates; relative to: not given; reading: lower = stronger binding; endpoint: relative binding energy; constant ends, left off below: GAGTCGTCTCGTCAGCAC … CCGTAGAGCACTCAGGTC
Target: POU domain, class 5, transcription factor 1, POU domain (Pou5f1, Mus musculus, UniProt P20263, residues 131-289)
UniProt P20263, sequence (131-289, looked up): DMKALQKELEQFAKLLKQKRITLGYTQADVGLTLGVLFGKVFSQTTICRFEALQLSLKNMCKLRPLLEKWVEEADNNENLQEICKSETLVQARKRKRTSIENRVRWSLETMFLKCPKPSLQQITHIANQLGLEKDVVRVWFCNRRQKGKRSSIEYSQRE
Strand = ATGCCATC; value = 0.632 ln ratio
Strand = ATGCAGCC; value = 0.179 ln ratio
Strand = TTGCTAAT; value = -1.56 ln ratio
Strand = ATCAGCAT; value = -1.08 ln ratio
Strand = ATGCGGAG; value = 0.437 ln ratio
Strand = ATGCTCTT; value = 0.685 ln ratio
Strand = TCCCTAAT; value = 0.788 ln ratio
Strand = ATGCGTAC; value = 0.121 ln ratio
Strand = ATGGAAAT; value = -0.339 ln ratio
Strand = ATGCCGCC; value = 1.02 ln ratio
Strand = ATATCGAT; value = 0.488 ln ratio
Strand = TTGATAAT; value = 0.156 ln ratio
Strand = ATAGCCAT; value = 0.473 ln ratio
Strand = ATTATTAT; value = -0.097 ln ratio
Strand = ATGCCTCT; value = 0.758 ln ratio
Strand = ATGGTAAT; value = -1.39 ln ratio
Strand = ATGCCTGT; value = 0.574 ln ratio
Strand = ATAGGAAT; value = 0.22 ln ratio
Strand = ATTTAGAT; value = -0.368 ln ratio

Block 2 — method: protein binding microarray; form: double-stranded DNA, one strand shown; sample: in vitro; concentration: not given; relative to: not given; reading: higher = stronger binding; endpoint: E-score
Target: Histone acetyltransferase KAT6A, both winged helices, GST fusion (KAT6A, Homo sapiens, UniProt Q92794, residues 1-181)
Notes: 8-mer, flanks averaged, mean of 2 arrays, mostly near background
Target sequence (chain): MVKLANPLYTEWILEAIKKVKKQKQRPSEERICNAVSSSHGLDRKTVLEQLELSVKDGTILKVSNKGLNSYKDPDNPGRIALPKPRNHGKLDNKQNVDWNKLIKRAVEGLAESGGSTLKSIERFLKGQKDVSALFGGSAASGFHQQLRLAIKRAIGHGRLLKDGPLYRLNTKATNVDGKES
Strand = TACCAGCA; value = -0.142
Strand = GACTTAGA; value = -0.163
Strand = ATGGCCCC; value = -0.0594
Strand = ATAAGACA; value = -0.0511
Strand = CTGAGCTC; value = 0.0107
Strand = GGGGAGAA; value = -0.144
Strand = ACCAAGCG; value = 0.164
Strand = AGCTCAGA; value = -0.103
Strand = ATGACGGA; value = 0.121
Strand = CGAACAAC; value = 0.0323
Strand = ACTTAATC; value = -0.136
Strand = CTTTCCAC; value = -0.04
Strand = CAGGTCAG; value = -0.0736
Strand = ATCCTTAC; value = 0.00834
Strand = AGCTCCTC; value = -0.245
Strand = ACGTTAAC; value = -0.057
Strand = CCACAGCA; value = -0.0477
Strand = AAGGTGGC; value = -0.207
Strand = ACAACTTC; value = -0.0631
Strand = AGCATAAA; value = -0.076
Strand = ATGCCCCG; value = 0.0333
Strand = CAGCAGTC; value = -0.0602
Strand = AATGAGAT; value = -0.145
Strand = CAGGCATG; value = -0.109
Strand = TTACAGAA; value = -0.196

Block 3 — method: RNAcompete; form: RNA; sample: in vitro; concentration: 20 nM; notes: 7-mer, probes averaged, single round; relative to: mean of 7-mers; reading: higher = stronger binding; endpoint: 7-mer Z-score
Target: PABPC1L2, full length, GST fusion (mouse, UniProt A0ABA7IW68)
Construct (chain): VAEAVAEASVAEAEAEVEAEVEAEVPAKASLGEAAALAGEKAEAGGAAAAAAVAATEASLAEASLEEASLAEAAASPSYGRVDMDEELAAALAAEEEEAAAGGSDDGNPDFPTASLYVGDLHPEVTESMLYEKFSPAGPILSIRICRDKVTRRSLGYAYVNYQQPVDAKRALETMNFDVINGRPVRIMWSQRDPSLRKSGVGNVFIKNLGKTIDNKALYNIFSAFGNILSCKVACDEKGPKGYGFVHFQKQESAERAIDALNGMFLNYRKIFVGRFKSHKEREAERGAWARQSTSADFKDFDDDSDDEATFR
Strand = GUUUUCC; value = -0.536
Strand = UUAUCCG; value = -0.273
Strand = CGAAGAU; value = -0.113
Strand = CCACUAA; value = -0.0337
Strand = CCCUAUA; value = -0.307
Strand = CUGAAGG; value = -0.0047
Strand = GGACAUC; value = 0.102
Strand = CAAAGAG; value = 0.617
Strand = GCUACUG; value = -0.28
Strand = AAGUCUC; value = 0.0696
Strand = AUCUAGG; value = -0.0228
Strand = CUGUGGG; value = -0.113
Strand = GCUUAAA; value = 0.419
Strand = GCUAUGA; value = -0.0863
Strand = GUAGAUA; value = -0.0863
Strand = ACGGUGA; value = -0.0464
Strand = UAUGAUU; value = -0.141
Strand = UGUGAAA; value = 0.523
Strand = CUCUAUC; value = -0.258
Strand = AUCAGGG; value = 0.215
Strand = CGGCGUA; value = -0.171
Strand = CCGGUGG; value = -0.162
Strand = UGGUAAC; value = -0.108
Strand = AUCAUGG; value = 0.213
Strand = ACCCGCU; value = -0.351

Block 4 — method: universal PBM; form: double-stranded DNA, one strand shown; sample: in vitro; concentration: 600 nM; reading: higher = stronger binding; endpoint: E-score
Target: Sal-like protein 4, full length isoform A (SALL4, Homo sapiens, UniProt Q9UJQ4, residues 1-1053)
UniProt Q9UJQ4, sequence (whole entry, looked up): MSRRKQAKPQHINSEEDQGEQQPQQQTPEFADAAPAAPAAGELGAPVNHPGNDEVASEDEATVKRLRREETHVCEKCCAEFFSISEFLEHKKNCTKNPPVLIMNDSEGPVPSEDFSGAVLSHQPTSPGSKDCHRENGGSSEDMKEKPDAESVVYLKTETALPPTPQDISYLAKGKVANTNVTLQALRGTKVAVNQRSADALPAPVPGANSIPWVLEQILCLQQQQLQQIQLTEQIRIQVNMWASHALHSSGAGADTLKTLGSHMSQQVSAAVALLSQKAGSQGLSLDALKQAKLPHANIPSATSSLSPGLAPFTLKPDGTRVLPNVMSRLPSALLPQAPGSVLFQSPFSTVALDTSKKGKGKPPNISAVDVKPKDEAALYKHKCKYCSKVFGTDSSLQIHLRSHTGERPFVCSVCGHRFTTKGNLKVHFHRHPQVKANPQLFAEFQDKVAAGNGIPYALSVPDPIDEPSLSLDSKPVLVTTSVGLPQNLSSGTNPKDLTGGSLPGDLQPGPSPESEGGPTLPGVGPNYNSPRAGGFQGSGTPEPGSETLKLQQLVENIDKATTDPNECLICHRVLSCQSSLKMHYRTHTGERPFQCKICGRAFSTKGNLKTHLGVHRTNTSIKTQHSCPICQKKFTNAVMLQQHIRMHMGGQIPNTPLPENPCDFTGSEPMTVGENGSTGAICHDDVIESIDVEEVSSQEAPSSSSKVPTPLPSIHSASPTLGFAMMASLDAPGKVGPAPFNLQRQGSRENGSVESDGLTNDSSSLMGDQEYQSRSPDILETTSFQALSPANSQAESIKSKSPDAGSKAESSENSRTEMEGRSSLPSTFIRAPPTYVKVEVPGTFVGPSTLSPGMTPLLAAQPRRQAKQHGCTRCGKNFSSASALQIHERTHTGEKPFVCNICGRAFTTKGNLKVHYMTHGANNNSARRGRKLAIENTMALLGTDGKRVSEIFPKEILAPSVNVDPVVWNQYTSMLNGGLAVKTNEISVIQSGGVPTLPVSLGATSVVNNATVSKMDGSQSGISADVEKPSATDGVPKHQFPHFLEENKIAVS
Notes: 8-mer, flanks averaged, mean of replicates
Strand = CATTGGAA; value = 0.187
Strand = CGACCCGC; value = -0.329
Strand = ACCATCCA; value = -0.0831
Strand = AGGAACCT; value = 0.0685
Strand = CTGTGAAA; value = 0.165
Strand = AGCCAGCG; value = -0.264
Strand = AACAAGCA; value = 0.117
Strand = AAAAGCAA; value = 0.166
Strand = AGAGCCTG; value = -0.166
Strand = TGAACTAA; value = 0.167
Strand = ACCGGCGC; value = -0.283
Strand = AGACCATG; value = -0.22
Strand = GTAACTGA; value = 0.0462
Strand = AGTTTACG; value = 0.0898
Strand = ATCAATCA; value = 0.272
Strand = AATTCCAC; value = 0.181
Strand = TGAAATCA; value = 0.226
Strand = AAAGTCTA; value = 0.112
Strand = GTTGTTAA; value = 0.246
Strand = ACTGTGTA; value = 0.128

Block 5 — method: RNA Bind-n-Seq; form: RNA; sample: in vitro; concentration: 365 nM; relative to: no-protein control; reading: higher = stronger binding; endpoint: RBNS enrichment (R)
Target: RNA binding protein fox-1 homolog 2, RRM domain, GST-SBP tag (RBFOX2, Homo sapiens, UniProt O43251-10, residues 100-194)
Notes: natural RNA segment, single round, ends assumed
Constant ends, left off below: GGGAGUUCUACAGUCCGACGAUC … UGGAAUUCUCGGGUGCCAA
Construct (chain): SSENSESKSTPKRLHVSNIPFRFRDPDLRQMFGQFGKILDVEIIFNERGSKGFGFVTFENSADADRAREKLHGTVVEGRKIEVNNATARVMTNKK
Strand = GGCUUUGUUACCCAGGCUGGAUUGCAAUGGGGUGAUCUAGGCUCACUGCAGCCUCCACCACCUGAGUUCAAGCGAUUUUUCUGCCUCAACCUCUCCUGAGUAGCUGGGAC; value = 0.256
Strand = AGGAAUUUGUAAUUUGAGACCUAGUAUUUUUACACAAUAAACCUGCUAAAACAGGCUUUAAAAGACAGCAAAAUAAGCCAUAUGUAGUGGUGUUAAGACUGUAAUCCCAG; value = 0.392
Strand = AAGGAAUUUCUCUUCCUUCUUCUCCUGCCUCUAGCCUCUCCUGGAAAGGCCUGGAUAUGGUUUCUAAAAUCUCAGCUGAGAACUUCAGAAAACAGCAGCAGUAUUUUCCU; value = 0.259
Strand = UCCCCAGAGUGGCUUUCCUGGCACCCUGGCCUGGGUGUCUGGUUCUGUUUUCUUUUCUUCCCCUUGUGUUUCCAGUCACCUAACUUCCCUUCCUCAGGCUCCCCCGGCCC; value = 0.802
Strand = CUGCCGCCCCACCCUGUGCUCUCCGGAUCCCACUAGCCACAGGCAUCUCCAGGAGGGCCCGGGGCUCCUGCGUCCCUCGGGGUCUGUCAUGUGACCUGUUUGGCCCCUAA; value = 0.489
Strand = AGGGGUGGGGUGAACCCUUCUGUGGUCUGUACCCCUGGUCUAGUGGGAGGAAUCCCUGAAGACCUGCAUCCCCUAAGUGAGGACCCUACAGGGUACCUUGUGCUCUGCCC; value = 0.892
Strand = AAUACCCUUUGUGCCCUCAAGAAUUAAAAGCCUCUAUGAUCCAGAGUUGCUAUGCACCAAAUUUUGAUGCCUUCUAAAUACCUUGAUGCCUGUAGCACUAGAAAUGCUUU; value = 0.619
Strand = CAUAGAAAAACUGUUCUCAGUUUUAUUUUUACCUAACACUAACAUGAGUAACCUAAGGGAAGUGCUGAAUGGUGUUGGCAGGGGUAUUAAACGUGCAUUUUUACUCAACU; value = 0.431
Strand = CACAGCCAGCCUAGGGUCUUCGGCACCUCCAAGAGCUGAAUCUCCCUCCAACCCUUCUUGCCUACUCCUCACUGCCAGCUGGGACCUAGGCUCAGUCCUGUGUGGUGCCC; value = 0.526
Strand = CAUAGGCAGGAUUCCUAAUUCCUGCCACUCCCCCUAAGAGCAGGACUUCCCUAUGCCAGCACAUGUGCCCCAGGUGGGGCUGAGUACAGGUAACCUUGAGCUCAGCUUGG; value = 0.608
Strand = AUAUUCAAGGCAGUGGUCUGUGGCUACAGGAAGCUGGUUCUACUGUCUGCUUAACAAACUGUCUUUGUGAGUACAGAGAUUGGGUUUACCACUUCUGCUGAGGAGACCAC; value = 0.379
Strand = UAGAAUAAAAUCUUAAAGCACUCAUAAUAUGGCAUCCUUCAAUUUCUGUAUAAAAGCAGAUCUUUUUAAAAAGAUACUUCUGUAACUUAAGAAACCUGGCAUUUAAAUCA; value = 0.962

Block 6 — method: RNA Bind-n-Seq; form: RNA; sample: in vitro; concentration: 1 µM; notes: whole 134-nt RNA, ends assumed; together with: 150 mM KCl; relative to: input library; reading: higher = stronger binding; endpoint: log2 enrichment
Target: Ras GTPase-activating protein-binding protein 1, RRM domain (G3BP1, Homo sapiens, UniProt Q13283)
UniProt Q13283, sequence (whole entry, looked up): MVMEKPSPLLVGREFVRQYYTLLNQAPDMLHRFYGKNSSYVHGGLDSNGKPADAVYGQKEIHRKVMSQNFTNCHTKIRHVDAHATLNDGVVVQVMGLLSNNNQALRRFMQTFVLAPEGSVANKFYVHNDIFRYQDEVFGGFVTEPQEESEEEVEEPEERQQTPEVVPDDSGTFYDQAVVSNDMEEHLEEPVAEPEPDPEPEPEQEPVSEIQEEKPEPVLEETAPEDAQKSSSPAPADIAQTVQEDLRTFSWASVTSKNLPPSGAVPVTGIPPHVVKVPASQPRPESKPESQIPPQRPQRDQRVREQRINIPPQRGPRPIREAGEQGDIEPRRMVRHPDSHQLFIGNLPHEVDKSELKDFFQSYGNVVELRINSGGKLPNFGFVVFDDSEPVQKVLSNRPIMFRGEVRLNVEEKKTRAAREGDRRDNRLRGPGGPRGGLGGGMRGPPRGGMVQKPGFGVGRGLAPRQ
Constant ends, left off below: GGGAGUUCUACAGUCCGACGAUC … UGGAAUUCUCGGGUGUCAAGG
Strand = CACAGACAACACGCACCCACACAGACACAGAGGGAAGGGGUUGGGAUGGGGACAGGGUGCACAUCAGGGCGGGGUAGGACCCCAGCCCCU; value = 0.148
Strand = CAAGUCCUGUGCUACACAUCGUAUGUACCGAAUCGGAAAAAAAGGAAAGGAAAGGAAAGUAUUAUGUUACGCCGUUCGGAUCUGCACUUC; value = -0.133
Strand = UCCUGUGCUACACAUCGUAUGUACCGAAUCGGGGUUUUUGGGGUUUUUGGGGUUUUUGGGAAAGUAUUAUGUUACGCCGUUCGGAUCUGC; value = -0.0333
Strand = ACCAUGCAGGUGGGCAUCUUUUGGAAGUGGGGCAAGGGGGGGAUAGGGAGGGGGGUAACACUUUGGGAACAGGUGGUCCCAGGUCGUUUC; value = -0.508
Strand = UCAAGUCCUGUGCUACACAUCGUAUGUACCGAAUCGGAAAAAAAGGAAAGGUGGAAAGUAUUAUGUUACGCCGUUCGGAUCUGCACUUCC; value = -0.248
Strand = CUCAAGUCCUGUGCUACACAUCGUAUGUACCGAAUCGGUUUGGUGGUUUUUGGAAAGUAUUAUGUUACGCCGUUCGGAUCUGCACUUCCA; value = -0.21
Strand = UCCUGUGCUACACAUCGUAUGUACCGAAUCGGGGAAAAAAGGAAAAAAGGGGAAAAAAGGAAAGUAUUAUGUUACGCCGUUCGGAUCUGC; value = 0.0415
Strand = GUCCUGUGCUACACAUCGUAUGUACCGAAUCGGGGUUUUUGGGGAAAAAGGGGUGGGGAAAGUAUUAUGUUACGCCGUUCGGAUCUGCAC; value = 0.885
Strand = CUCAAGUCCUGUGCUACACAUCGUAUGUACCGAAUCGGGGAAGGGGAAGGAAGGAAAGUAUUAUGUUACGCCGUUCGGAUCUGCACUUCC; value = -0.416
Strand = UCCUGUGCUACACAUCGUAUGUACCGAAUCGGAAAAAAAGGGAAAAAAAGGAAAAAAAGGAAAGUAUUAUGUUACGCCGUUCGGAUCUGC; value = 0.115
Strand = CUGUGCUACACAUCGUAUGUACCGAAUCGGGUUUUUUUGGGUUUUUUUGGGGUUUUUUUGGAAAGUAUUAUGUUACGCCGUUCGGAUCUG; value = -0.174
Strand = GCAUAAUGGAUAUUUUUUAACUUGGCGAGAUGUGUCUCUCAAUCCUGUGGCUUUGGUGAGAGAGUGUGCAGAGAGCAAUGAUAGCAAAUA; value = -0.232
Strand = UGGUUUUGGUGCCUGGCAUCGAAGAUGGUGUGUUCUUUCUGGAAACUGUAUAUCUUAUUGGACUUAUCCAGAUGAUGAGAAACGCAAGGU; value = -0.133
Strand = UUUUAUUCUUCCAUCUUUUCCCACAGGUGGCAGCUGCCAACAAGAAGCAUUAGAACAAACCAUGCUGGGUUAAUAAAUUGCCUCAUUCGU; value = -0.185

Some of these lines once more (block 1):
Strand = ATGGAAAT; value = -0.339 ln ratio
Strand = ATGCCGCC; value = 1.02 ln ratio
Strand = ATATCGAT; value = 0.488 ln ratio
Strand = TCCCTAAT; value = 0.788 ln ratio
Strand = ATAGCCAT; value = 0.473 ln ratio
Strand = ATGCCTGT; value = 0.574 ln ratio
Strand = TTGATAAT; value = 0.156 ln ratio
Strand = ATGCCATC; value = 0.632 ln ratio
Strand = ATTTAGAT; value = -0.368 ln ratio
